Published values from different studies.
Numbered parts are unrelated; each lists some results of a single study. Changes are numbered by the printed parent chain.

Sample 1
Target: ABI1, truncated, D143A, DHFR fusion (Arabidopsis thaliana)
Technique: DHFR PCA, deep sequencing
Medium: yeast
Notes: methotrexate growth selection, single substitutions
With: (+)-ABA 17 µM
Baseline: wild-type fitted maximum
Direction: higher = stronger binding
Quantity: relative binding score
Parent: PYL1, truncated, DHFR fusion (Arabidopsis thaliana); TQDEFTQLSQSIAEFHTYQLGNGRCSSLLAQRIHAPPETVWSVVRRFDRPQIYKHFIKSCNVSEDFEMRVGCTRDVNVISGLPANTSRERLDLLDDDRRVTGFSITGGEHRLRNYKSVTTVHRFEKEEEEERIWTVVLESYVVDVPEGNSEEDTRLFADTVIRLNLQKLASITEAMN
T39F: 62.7%
K116Q: 78.9%
A175D: 85%
L28K: 37.7%
A30L: 81%
V44F: -13%
I52Y: 72%
A35L: -14%
R90N: 17.9%
H55K: 87.4%
G102D: -8.25%
R155P: -9.26%
L8Y: 64.7%
D65V: 57.5%
E130H: 87.8%
A175L: 79.3%
P146F: -12.6%
T86K: 66.1%
L91Y: 22.1%

Sample 2
Target: Histone acetyltransferase KAT6A, both winged helices, GST fusion (KAT6A, Homo sapiens, UniProt Q92794, residues 1-181)
Technique: protein binding microarray
Molecule type: double-stranded DNA, one strand shown
Medium: in vitro
Concentration: not given
Notes: 8-mer, flanks averaged, mean of 2 arrays, mostly near background
Baseline: not given
Direction: higher = stronger binding
Quantity: E-score
Target sequence (chain): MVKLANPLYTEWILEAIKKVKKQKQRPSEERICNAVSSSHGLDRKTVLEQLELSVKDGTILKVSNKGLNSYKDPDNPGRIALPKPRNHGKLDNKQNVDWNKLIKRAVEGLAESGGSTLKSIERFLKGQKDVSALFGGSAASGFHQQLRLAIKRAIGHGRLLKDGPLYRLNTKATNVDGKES
CTACCAAG: -0.165
AACCGTGG: -0.0241
CAACTCGG: -0.128
GACCACTC: -0.137
ATACGAAC: 0.0592
GAATATCC: 0.0121
AGAGCCCA: -0.141
GAAATCCA: -0.075
AATGCAGT: -0.0911
AAGTTTTA: -0.0697
CTTCTCTA: -0.226
CGCCCTTA: 0.0274
CAATTTCC: 0.0719
GTGGAAGA: -0.00431
CACTGAGC: -0.0327
GTACTCCA: -0.115
ATCGTACC: -0.0959
AAGCACCG: 0.0709
TCGCACCA: -0.103
GCTTGTGA: -0.0653
CGGCGCAC: 0.318
TCACTGGA: -0.093
AATCTAAT: -0.0272
CTACGAAA: -0.0993
CGATACAA: 0.0119

Sample 3
Target: CCNB3, cyclin fold, Cln2 fusion (human)
Technique: yeast growth competition, sequencing
Medium: yeast
Notes: strong parent motif
Baseline: not given
Direction: higher = stronger binding
Quantity: normalised enrichment score
Parent: SCAPER docking peptide (human); SNARRSLNFGGST
SKARRSLNFGGST [N2K]: 1.18
SNARRSLTFGGST [N8T]: 0.845
SNARRSLNFHGST [G10H]: 0.923
SNLRRSLNFGGST [A3L]: 0.461
SNARRALNFGGST [S6A]: 1.37
SNARRSLNFGNST [G11N]: 1.46
SNARNSLNFGGST [R5N]: -0.296
SNARRSLNFGSST [G11S]: 1.14
SNAHRSLNFGGST [R4H]: 0.354
SNARRSLFFGGST [N8F]: 1.2
SNAYRSLNFGGST [R4Y]: -0.00579
SPARRSLNFGGST [N2P]: 1.38
SNARRSFNFGGST [L7F]: 0.154
SNARRSLNFGGSA [T13A]: 1.33
SNARRELNFGGST [S6E]: -0.0454
SNARRSLAFGGST [N8A]: 0.47
SNARSSLNFGGST [R5S]: 0.43
SNMRRSLNFGGST [A3M]: 0.543
SNARRSLNLGGST [F9L]: 0.382
SNARCSLNFGGST [R5C]: 0.212
SNARRSLNSGGST [F9S]: -0.0828
SNARRSLNFGGIT [S12I]: 1.43
SVARRSLNFGGST [N2V]: 1.25
GNARRSLNFGGST [S1G]: 1.36
SNARRSLNFGGMT [S12M]: 0.901

Sample 4
Target: Interferon regulatory factor 5, full length, phosphomimetic (IRF5, Homo sapiens, UniProt Q13568-2, residues 1-514, K96S/S451D/S453D/S456D/S462D)
Technique: protein-binding microarray
Molecule type: double-stranded DNA, one strand shown
Medium: in vitro
Concentration: 250 nM
Notes: 60-bp whole probe
With: salmon DNA 0.4 mg/ml
Baseline: random background probes
Direction: higher = stronger binding
Quantity: log fluorescence
Constant ends, left off below: GCCTAGCAC … GTCTTGATTCGCTTGACGCTGCTG
GATGGTTCCGGTTTCGGGACGTGCTAG: 5.47 z-score
GACGAGATCAGTTTCGAGACGTGCTAG: 5.48 z-score
CGAGGTCTCGCTATGTTGTCGTGCTAG: -0.0146 z-score
TTAGGTTCCCCTTTCCTTTAGTGCTAG: 0.446 z-score
GGCGGTTTCGGTTTCGGGACGTGCTAG: 10.7 z-score
GACGGACTGTGTATCGGGACGTGCTAG: 0.25 z-score
GACGGTATCGGATTCGGGACGTGCTAG: 1.68 z-score
TCAAATCCCACATTTGATACTGTGCTA: 0.5 z-score
TTAGGAATCGGTCTCGGTTAGTGCTAG: 1.18 z-score
GACGATCTCAGTATCGAGTCGTGCTAG: 2.21 z-score
TGTTATTAAAATTTCATGAAGTGCTAG: 1.12 z-score
TCAATTTTTTTTATCAAACTGTGCTAG: 0.963 z-score
TCATCTTCCCCTCTCTTACTGTGCTAG: 0.39 z-score
TTAGGTTTCGACTATCGTTTAGTGCTA: 8.45 z-score
TTAGGTATCGGGACAGGGTTAGTGCTA: 2 z-score
AACGGTATCGGGTATCGGGACGTGCTA: 3.96 z-score
TTAGAACTGAGGTATCGATTAGTGCTA: 2.58 z-score
CCCTGAGTCCCTTGGGCCTTGTGCTAG: -0.754 z-score
GACGGTAACGACTATCGGGACGTGCTA: 1.55 z-score
GAGGGTCTCGGTTTCGGGACGTGCTAG: 2.97 z-score
TTAGATTCCAGTTTCGATTGGTGCTAG: 9.4 z-score
CACGATTTCGGGACTGGAGACGTGCTA: 1.49 z-score
TCAAATTTTTTTTCTAAACTGTGCTAG: 0.905 z-score
TTAGGTTTCTTTCTCCTTTAGTGCTAG: 2.65 z-score
GATGGTTTCGGGTATCGGGACGTGCTA: 8.8 z-score

Sample 5
Target: Sal-like protein 4, full length isoform A (SALL4, Homo sapiens, UniProt Q9UJQ4, residues 1-1053)
Chain of UniProt Q9UJQ4 (whole entry, looked up): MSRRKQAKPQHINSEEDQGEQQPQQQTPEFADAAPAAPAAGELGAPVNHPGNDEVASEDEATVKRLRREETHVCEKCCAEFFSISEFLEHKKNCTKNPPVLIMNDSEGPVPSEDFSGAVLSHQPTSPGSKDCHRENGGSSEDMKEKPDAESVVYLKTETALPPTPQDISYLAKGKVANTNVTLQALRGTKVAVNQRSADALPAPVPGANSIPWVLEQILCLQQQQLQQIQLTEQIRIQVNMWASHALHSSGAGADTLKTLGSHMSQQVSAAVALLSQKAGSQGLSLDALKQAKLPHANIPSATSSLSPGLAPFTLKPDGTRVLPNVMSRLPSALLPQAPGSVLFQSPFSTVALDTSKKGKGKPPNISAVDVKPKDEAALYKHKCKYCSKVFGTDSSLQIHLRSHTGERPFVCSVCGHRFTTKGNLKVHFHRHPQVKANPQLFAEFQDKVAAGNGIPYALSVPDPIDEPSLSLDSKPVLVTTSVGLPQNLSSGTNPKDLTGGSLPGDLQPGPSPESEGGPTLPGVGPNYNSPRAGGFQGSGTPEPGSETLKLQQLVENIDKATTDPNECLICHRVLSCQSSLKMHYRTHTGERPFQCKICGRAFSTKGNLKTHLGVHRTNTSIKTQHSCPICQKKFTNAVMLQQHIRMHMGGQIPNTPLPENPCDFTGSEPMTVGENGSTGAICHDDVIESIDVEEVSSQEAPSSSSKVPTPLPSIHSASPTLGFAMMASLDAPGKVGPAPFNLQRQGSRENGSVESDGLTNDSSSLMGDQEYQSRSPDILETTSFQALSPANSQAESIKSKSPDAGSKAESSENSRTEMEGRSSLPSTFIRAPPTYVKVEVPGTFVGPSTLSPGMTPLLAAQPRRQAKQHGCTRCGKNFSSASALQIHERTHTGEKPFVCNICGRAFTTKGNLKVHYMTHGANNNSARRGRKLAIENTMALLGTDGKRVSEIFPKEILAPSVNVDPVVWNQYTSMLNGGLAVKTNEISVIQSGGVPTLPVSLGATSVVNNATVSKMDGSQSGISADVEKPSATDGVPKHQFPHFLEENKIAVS
Technique: universal PBM
Molecule type: double-stranded DNA, one strand shown
Medium: in vitro
Concentration: 600 nM
Notes: 8-mer, flanks averaged, mean of replicates
Direction: higher = stronger binding
Quantity: E-score
GCCCAAGC: -0.257
AAGATACA: 0.237
CCTATATC: 0.198
ATGCTGCA: -0.0268
AAGGAAAC: -0.111
ACAGTCGA: -0.15
CTGCGAAC: -0.119
CATCGGCC: -0.316
CTCAGGTA: -0.117
AATAACCT: 0.3
AAGGTGAA: -0.0728
CACAATAA: 0.277
AAGATCGT: -0.0653
ACCCTAAA: -0.00954
CGCTGTAC: -0.0314
AACGTACC: -0.203

Sample 6
Target: FOSL1, bZIP domain (human)
Technique: DHFR protein complementation
Medium: yeast
Notes: single substitutions, most at no-binding floor
Baseline: wild-type JUN-FOS pair
Direction: higher = stronger binding
Quantity: binding fitness
Parent: JUN, bZIP domain (human); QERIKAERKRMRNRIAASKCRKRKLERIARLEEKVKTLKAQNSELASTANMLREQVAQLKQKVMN; partner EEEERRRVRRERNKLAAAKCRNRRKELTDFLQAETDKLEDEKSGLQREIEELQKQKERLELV
A40L: -0.514 natural log
V56C: -0.852 natural log
E33Q: -0.513 natural log
K36V: -0.507 natural log
K36S: -0.426 natural log
L45W: -1.46 natural log
L31A: -0.701 natural log
K34M: -0.521 natural log
S43C: -0.503 natural log
V56N: -1.33 natural log
S43W: -0.59 natural log
K34W: -0.541 natural log
K39Q: -0.689 natural log
K36H: -0.601 natural log
E32H: -0.671 natural log
V35N: -0.735 natural log
E54G: -0.548 natural log

Repeated from above (sample 2):
AACCGTGG: -0.0241
CAACTCGG: -0.128
GACCACTC: -0.137
ATACGAAC: 0.0592
GAATATCC: 0.0121
AGAGCCCA: -0.141
GAAATCCA: -0.075
AATGCAGT: -0.0911
AAGTTTTA: -0.0697
CTTCTCTA: -0.226
CGCCCTTA: 0.0274
CAATTTCC: 0.0719
GTGGAAGA: -0.00431
CACTGAGC: -0.0327
GTACTCCA: -0.115
ATCGTACC: -0.0959
AAGCACCG: 0.0709
TCGCACCA: -0.103
